Measurements from different studies.
A part holds a random share of what one study measured.

Sample 1
Target: Centromere-binding protein 1, full length, N-terminal tag (CBF1, Saccharomyces cerevisiae, UniProt P17106, residues 1-351)
UniProt P17106, sequence (whole entry, looked up): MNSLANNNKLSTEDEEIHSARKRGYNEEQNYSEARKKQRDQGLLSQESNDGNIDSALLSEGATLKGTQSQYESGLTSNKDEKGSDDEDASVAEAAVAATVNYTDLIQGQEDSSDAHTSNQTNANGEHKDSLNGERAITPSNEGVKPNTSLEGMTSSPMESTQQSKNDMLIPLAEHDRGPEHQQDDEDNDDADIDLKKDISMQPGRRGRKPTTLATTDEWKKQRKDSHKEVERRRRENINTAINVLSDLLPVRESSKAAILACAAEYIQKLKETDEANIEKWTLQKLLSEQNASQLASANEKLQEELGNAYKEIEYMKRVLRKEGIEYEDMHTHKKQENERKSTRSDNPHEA
Method: protein-binding microarray
Form: double-stranded DNA, one strand shown
Matrix: in vitro
Concentration: 0.8 µM
Notes: whole 60-bp probe, no competitor
Direction: higher = stronger binding
Shared flanks, not repeated: … GTCTTGATTCGCTTGACGCTGCTG
Strand	fluorescence intensity [a.u.]
GAATAACTCATCTTGCACATGCTATTCTTTTCGTAG	715
GAAAAATTAAAGAAGCACGTTTCCGTTTTTTATTAG	859
GAAGTACCAAAAATGCACGTGTCTGTACACAATTAG	6430
CTAAGTAGCTGTCATCATCACCTACAAATGTGTTTC	535
CTAAATATTGTATAGTACGTGATTCTGGCTAGTTTC	640

Sample 2
Target: Histone acetyltransferase KAT6A, both winged helices, GST fusion (KAT6A, Homo sapiens, UniProt Q92794, residues 1-181)
Method: protein binding microarray
Form: double-stranded DNA, one strand shown
Matrix: in vitro
Concentration: not given
Notes: 8-mer, flanks averaged, mean of 2 arrays, mostly near background
Reference: not given
Direction: higher = stronger binding
Target sequence (chain): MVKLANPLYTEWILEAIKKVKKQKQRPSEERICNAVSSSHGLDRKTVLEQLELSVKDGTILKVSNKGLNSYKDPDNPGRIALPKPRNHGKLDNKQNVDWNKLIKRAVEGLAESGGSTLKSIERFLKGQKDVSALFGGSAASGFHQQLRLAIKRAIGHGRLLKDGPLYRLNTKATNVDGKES
Strand	E-score
GTACGACA	-0.142
CATTTCGC	0.106
AGGCGGGC	0.188

Sample 3
Target: Interferon regulatory factor 5, full length, phosphomimetic (IRF5, Homo sapiens, UniProt Q13568-2, residues 1-514, K96S/S451D/S453D/S456D/S462D)
Method: protein-binding microarray
Form: double-stranded DNA, one strand shown
Matrix: in vitro
Concentration: 250 nM
Notes: 60-bp whole probe
Together with: salmon DNA 0.4 mg/ml
Reference: random background probes
Direction: higher = stronger binding
Strand	log fluorescence
GCCTAGCACGACGGTCTCTGTATCGGGACGTGCTAGGTCTTGATTCGCTTGACGCTGCTG	0.52 z-score
GCCTAGCACTCATTTCTATTTTCTGAACTGTGCTAGGTCTTGATTCGCTTGACGCTGCTG	2.75 z-score
GCCTAGCACTTAGGAGTGGTACATGAAGCGTGCTAGGTCTTGATTCGCTTGACGCTGCTG	-0.344 z-score

Mixed results
Molecule	target	test	system	conditions	scale	quantity	result
PhoQ, residues 284 288 289 292 302 303 NLSRDF	PhoP, residues 12 14 15 18 19 FWNTL (Escherichia coli, UniProt P23836)	Sort-seq, item: YFP reporter	E. coli	PhoQ-PhoP variant library, together with: 10 µM Mg2+	reference: high Mg2+ state, higher = stronger signaling	fold induction	0.432

Repeated from above (sample 2):
Strand	E-score
GTACGACA	-0.142
CATTTCGC	0.106
